Results collected from several papers.
Every numbered part comes from another study and shows a few of its results, in no order. Changes are numbered by the printed parent chain.

Set 1
Target: Interferon regulatory factor 7, full length, phosphomimetic (IRF7, Homo sapiens, UniProt Q92985, residues 1-503, S471D/S472D/S475D/S476D/S477D/S483D/S484D/S487D)
Method: protein-binding microarray
Molecule type: double-stranded DNA, one strand shown
Matrix: in vitro
Tested at: 2200 nM top
Setting: 60-bp whole probe
Together with: salmon DNA 0.4 mg/ml
Reference: random background probes
Direction: higher = stronger binding
All sequences stand within: GCCTAGCAC … GTCTTGATTCGCTTGACGCTGCTG
Target sequence (chain): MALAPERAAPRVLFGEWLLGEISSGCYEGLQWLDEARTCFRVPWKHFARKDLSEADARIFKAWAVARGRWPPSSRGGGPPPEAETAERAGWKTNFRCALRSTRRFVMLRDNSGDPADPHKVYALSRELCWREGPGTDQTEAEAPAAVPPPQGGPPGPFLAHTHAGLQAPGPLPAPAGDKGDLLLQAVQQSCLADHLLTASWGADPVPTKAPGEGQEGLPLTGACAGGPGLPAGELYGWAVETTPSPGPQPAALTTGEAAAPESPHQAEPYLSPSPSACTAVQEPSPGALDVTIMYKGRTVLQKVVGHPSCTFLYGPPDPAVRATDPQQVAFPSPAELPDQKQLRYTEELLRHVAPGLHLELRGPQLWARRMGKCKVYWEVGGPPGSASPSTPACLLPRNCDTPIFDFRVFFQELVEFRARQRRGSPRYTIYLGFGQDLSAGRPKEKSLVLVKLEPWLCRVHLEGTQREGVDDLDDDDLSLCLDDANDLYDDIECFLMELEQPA
Under “fitted relative affinity”, `TTAGGTATCGGGACTGGATTAGTGCTA` is recorded as -0.199 z-score.
For `TTAGATTTCGAGTTTCGATTAGTGCTA`, “fitted relative affinity” read 6.2 z-score.
Under “fitted relative affinity”, `GACGATATCGGGTTTCTAGACGTGCTA` is recorded as 0.677 z-score.
For `TTAGATTTCAGATCCGATTAGTGCTAG`, “fitted relative affinity” read 0.665 z-score.
Under “fitted relative affinity”, `AGAAACTTGTATTTGTCCCTGTGCTAG` is recorded as 0.784 z-score.
For `TTAGGAATCGGGTTTCGGTTAGTGCTA`, “fitted relative affinity” read 3.54 z-score.
For `TTAGAATCCAGTTTCGATTAGTGCTAG`, “fitted relative affinity” read 5.94 z-score.

Set 2
Target: CCNF, cyclin fold, Cln2 fusion (human)
Method: yeast growth competition, sequencing
Matrix: yeast
Setting: strong parent motif
Reference: not given
Direction: higher = stronger binding
Starting sequence: RBL1 docking peptide (human); GSAKRRLFGEDPP; partner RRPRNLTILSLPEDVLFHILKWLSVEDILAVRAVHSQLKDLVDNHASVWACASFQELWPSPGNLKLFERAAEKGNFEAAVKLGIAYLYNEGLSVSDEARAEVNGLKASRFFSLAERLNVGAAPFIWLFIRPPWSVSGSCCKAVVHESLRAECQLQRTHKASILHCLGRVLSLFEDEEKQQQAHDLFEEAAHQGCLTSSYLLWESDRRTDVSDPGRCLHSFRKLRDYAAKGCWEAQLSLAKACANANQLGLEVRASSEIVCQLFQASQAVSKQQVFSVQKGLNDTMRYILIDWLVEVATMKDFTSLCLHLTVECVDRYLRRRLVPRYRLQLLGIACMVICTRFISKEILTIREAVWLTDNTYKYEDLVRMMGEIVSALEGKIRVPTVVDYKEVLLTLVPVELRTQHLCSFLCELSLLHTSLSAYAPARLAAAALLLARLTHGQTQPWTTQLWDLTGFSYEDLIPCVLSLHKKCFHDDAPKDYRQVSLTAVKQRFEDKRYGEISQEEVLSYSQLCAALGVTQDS
For `GSAKRRVFGEDPP [L7V]`, “normalised enrichment score” read 1.29.
Under “normalised enrichment score”, `GSAKDRLFGEDPP [R5D]` is recorded as 0.103.
For `GSAKRFLFGEDPP [R6F]`, “normalised enrichment score” read 1.83.
Under “normalised enrichment score”, `GSAKRRKFGEDPP [L7K]` is recorded as 1.04.
For `GKAKRRLFGEDPP [S2K]`, “normalised enrichment score” read 6.7.

Set 3
Target: ABI1, truncated, D143A, DHFR fusion (Arabidopsis thaliana)
Method: DHFR PCA, deep sequencing
Matrix: yeast
Setting: methotrexate growth selection, single substitutions
Together with: (+)-ABA 0.11 µM
Reference: wild-type fitted maximum
Direction: higher = stronger binding
Starting sequence: PYL1, truncated, DHFR fusion (Arabidopsis thaliana); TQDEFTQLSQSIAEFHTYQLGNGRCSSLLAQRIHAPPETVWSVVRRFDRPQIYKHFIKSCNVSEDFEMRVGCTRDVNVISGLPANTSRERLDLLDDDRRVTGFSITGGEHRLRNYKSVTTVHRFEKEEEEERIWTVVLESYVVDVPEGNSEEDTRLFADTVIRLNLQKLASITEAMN; partner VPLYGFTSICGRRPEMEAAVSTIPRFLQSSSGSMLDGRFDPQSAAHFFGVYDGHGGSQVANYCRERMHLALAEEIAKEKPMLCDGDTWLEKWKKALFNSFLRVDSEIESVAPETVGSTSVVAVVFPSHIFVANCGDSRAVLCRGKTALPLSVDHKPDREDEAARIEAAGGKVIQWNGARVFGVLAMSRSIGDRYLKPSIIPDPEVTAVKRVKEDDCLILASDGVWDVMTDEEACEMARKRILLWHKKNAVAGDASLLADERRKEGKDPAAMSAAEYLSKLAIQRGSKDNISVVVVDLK
Under “relative binding score”, `S104Q` is recorded as -8.43%.
For `T160D`, “relative binding score” read -7.32%.
`T173Y`: “relative binding score” -3.72%.
`S9V` — result for “relative binding score”: 24%.
`P146G`: “relative binding score” 14.3%.
`G71R`: “relative binding score” -1.05%.

Other studies, line by line
With `PhoQ, residues 284 288 289 292 302 303 SVTLVV` the fold induction was 4.52 (PhoP, residues 12 14 15 18 19 NNFVT (Escherichia coli, UniProt P23836); Sort-seq, measured: YFP reporter; E. coli; PhoQ-PhoP variant library, together with: 10 µM Mg2+; reference: high Mg2+ state, higher = stronger signaling).
